{"data": "Assay results of several laboratories", "note": "Numbers after ± are the reported error."}
{"Molecule": "O=C(NCc1cccs1)[C@@H]1CN(C(=O)c2cccnc2)CCN1c1ccc(Cl)c(Cl)c1", "organism": "SARS-CoV-2", "assay": "viral replication", "system": "USA-WA1/2020", "EC50": "1000 nM"}
{"Molecule": "CC(C)(C)[C@H](NC(=O)C(F)(F)F)C(=O)N1C[C@H]2[C@@H]([C@H]1C(=O)N[C@H](C#N)C[C@@H]1CCNC1=O)C2(C)C", "organism": "SARS-CoV-2", "assay": "replicon reporter (NanoLuc)", "system": "HEK-293T, Omicron BA.1 replicon, 3CLpro S144A/E166A", "setting": "48 h", "EC50": "2220 ± 410 nM"}
{"Molecule": "CC(C)(C)[C@H](NC(=O)C(F)(F)F)C(=O)N1C[C@H]2[C@@H]([C@H]1C(=O)N[C@H](C#N)C[C@@H]1CCNC1=O)C2(C)C", "organism": "SARS-CoV-2", "assay": "plaque area", "system": "Vero-AT, recombinant L152F/Q269H", "EC50": "32.1 nM"}
{"Molecule": "hexadimethrine", "organism": "prion", "assay": "PrPSc level, ELISA", "system": "ScN2a-cl3 dividing", "setting": "third replicate above 10 µM", "EC50": "> 10000 nM"}
{"Molecule": "CCC(C(=O)Nc1sc(C(N)=O)c(C)c1C(=O)OC)c1ccccc1 (centres unmarked)", "organism": "vaccinia virus mD4 surrogate", "assay": "viral replication, plaque", "system": "BSC-1", "setting": "24 h", "EC50": "21000 ± 3200 nM"}
{"Molecule": "Cn1cnc(Cn2c(=O)[nH]/c(=N\\c3cc4cn(C)nc4cc3Cl)n(Cc3cc(F)c(F)cc3F)c2=O)n1", "organism": "SARS-CoV-2", "assay": "cytopathic effect", "system": "Vero E6, BA.2.3", "EC50": "240 nM"}
{"Molecule": "C[C@H](NP(=O)(Nc1ccn([C@H]2CS[C@@H](COP(=O)(N[C@@H](C)C(=O)OCc3ccccc3)N[C@@H](C)C(=O)OCc3ccccc3)O2)c(=O)n1)N[C@@H](C)C(=O)OCc1ccccc1)C(=O)OCc1ccccc1", "organism": "HIV-1", "assay": "viral replication", "system": "CCRF-CEM, IIIB", "setting": "4 d", "EC50": "16000 ± 5300 nM"}
{"Molecule": "NC12CC3CC(CC(C3)C1)C2", "organism": "Influenza A virus", "assay": "viral replication, plaque size reduction", "system": "MDCK, A/Swine/Indiana/27-1112/2010 (H3N2)", "EC50": "34500 ± 4300 nM"}
{"note": "Repeated from above:"}
{"Molecule": "NC12CC3CC(CC(C3)C1)C2", "organism": "Influenza A virus", "assay": "viral replication, plaque size reduction", "system": "MDCK, A/Swine/Indiana/27-1112/2010 (H3N2)", "EC50": "34500 ± 4300 nM"}
